Measured values collected from several papers.
Numbered parts are unrelated; each lists some results of a single study.

Series 1
Target: Sal-like protein 4, full length isoform A (SALL4, Homo sapiens, UniProt Q9UJQ4, residues 1-1053)
UniProt Q9UJQ4, sequence (whole entry, looked up): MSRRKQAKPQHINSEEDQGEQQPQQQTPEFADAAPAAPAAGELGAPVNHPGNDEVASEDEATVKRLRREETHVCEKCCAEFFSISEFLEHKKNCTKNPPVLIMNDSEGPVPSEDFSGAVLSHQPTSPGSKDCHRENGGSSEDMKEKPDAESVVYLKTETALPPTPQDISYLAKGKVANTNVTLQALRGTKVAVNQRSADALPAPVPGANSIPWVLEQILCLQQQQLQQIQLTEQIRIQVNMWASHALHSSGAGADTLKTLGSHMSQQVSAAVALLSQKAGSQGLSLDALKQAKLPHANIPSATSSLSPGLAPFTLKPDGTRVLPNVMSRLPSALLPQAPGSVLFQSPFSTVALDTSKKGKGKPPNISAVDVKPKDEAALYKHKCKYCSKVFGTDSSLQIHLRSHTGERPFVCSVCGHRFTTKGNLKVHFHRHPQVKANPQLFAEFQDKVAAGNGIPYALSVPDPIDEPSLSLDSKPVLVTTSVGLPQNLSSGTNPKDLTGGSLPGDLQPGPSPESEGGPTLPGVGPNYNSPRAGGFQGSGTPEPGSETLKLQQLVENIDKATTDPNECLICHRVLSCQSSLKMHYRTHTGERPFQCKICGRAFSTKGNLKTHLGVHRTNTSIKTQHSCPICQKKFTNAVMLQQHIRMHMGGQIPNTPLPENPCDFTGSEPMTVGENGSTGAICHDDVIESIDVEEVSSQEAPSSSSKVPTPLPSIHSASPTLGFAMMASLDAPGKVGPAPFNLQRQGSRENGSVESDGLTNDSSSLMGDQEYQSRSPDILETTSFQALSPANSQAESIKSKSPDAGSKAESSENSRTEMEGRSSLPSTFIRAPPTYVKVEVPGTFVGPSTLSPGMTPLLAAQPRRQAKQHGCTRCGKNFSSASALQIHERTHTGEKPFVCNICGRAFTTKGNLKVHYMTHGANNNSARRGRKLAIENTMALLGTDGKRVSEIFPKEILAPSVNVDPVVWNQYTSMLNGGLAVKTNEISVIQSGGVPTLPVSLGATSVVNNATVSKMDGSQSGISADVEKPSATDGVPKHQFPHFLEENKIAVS
Technique: universal PBM
Molecule type: double-stranded DNA, one strand shown
Matrix: in vitro
Concentration: 600 nM
Notes: 8-mer, flanks averaged, mean of replicates
Direction: higher = stronger binding
The E-score of `CGCTCGTA` is reported as -0.0777.
For `AGATAGGC`, the E-score was -0.0463.
`GGAGCGAC` has an E-score of -0.145.
The E-score of `CCGAAAAG` is reported as -0.0012.
`AGCAATAT` has an E-score of 0.374.
With `ACGAACGT` the E-score was 0.0119.
With `GCGGCTCA` the E-score was -0.242.
With `ATGCGAAT` the E-score was 0.223.
With `ACGATGAT` the E-score was 0.0361.
With `CTTCTCCA` the E-score was -0.185.
With `CCTAGGTA` the E-score was -0.00705.
With `CACGTGCC` the E-score was -0.169.
For `CTCCACAG`, the E-score was -0.211.
For `CACGCGAC`, the E-score was -0.124.
The E-score of `AAGTGAGT` is reported as -0.0706.
`CTTAAGTC` has an E-score of 0.011.
`GGGGAGCA` gave an E-score of -0.342.
With `ACACTTAC` the E-score was 0.155.

Series 2
Target: Interferon regulatory factor 5, full length, phosphomimetic (IRF5, Homo sapiens, UniProt Q13568-2, residues 1-514, K96S/S451D/S453D/S456D/S462D)
Technique: protein-binding microarray
Molecule type: double-stranded DNA, one strand shown
Matrix: in vitro
Concentration: 250 nM
Notes: 60-bp whole probe
Added: salmon DNA 0.4 mg/ml
Baseline: random background probes
Direction: higher = stronger binding
Shared flanks, not repeated: GCCTAGCAC … GTCTTGATTCGCTTGACGCTGCTG
For `GACCATTTCGGGACTGGAGACGTGCTA`, the log fluorescence was 1.24 z-score.
`TCAGAGCTCCTCCTTCTCACTGTGCTA` has a log fluorescence of -0.462 z-score.
The log fluorescence of `TTAGTTCTCAGTATCGATTAGTGCTAG` is reported as 6.8 z-score.
The log fluorescence of `GATGGTATCGGTCTCGGGACGTGCTAG` is reported as 6.75 z-score.
For `TCAAGTCCCATGTTGCAGACTGTGCTA`, the log fluorescence was -0.362 z-score.
The log fluorescence of `TCAGGTCTCGCTATGTTACTGTGCTAG` is reported as 0.0944 z-score.
The log fluorescence of `CAGAAAATAGAAACTCGTGTTGTGCTA` is reported as 1.82 z-score.
`TCATTTTTCTGATCCATACTGTGCTAG` has a log fluorescence of 1.05 z-score.
For `GACGGTTTCCTTCTCGTGACGTGCTAG`, the log fluorescence was 0.906 z-score.
The log fluorescence of `TTAGGAATGGGTCTCGGTTAGTGCTAG` is reported as 0.0851 z-score.
`TTAGATTTCAGTTCCGGTTAGTGCTAG` gave a log fluorescence of 4.03 z-score.
`TGTAGTGTGTGTCTGATTATGTGCTAG` gave a log fluorescence of 0.0818 z-score.
`TTAGCACTGCTTTTCCTTTAGTGCTAG` gave a log fluorescence of 0.598 z-score.
`TTAGATATCGGGACTGTATTAGTGCTA` has a log fluorescence of 1.28 z-score.
`GACGATCTCAGTCTCGAGTCGTGCTAG` has a log fluorescence of -0.0637 z-score.
With `CAAGTGATGTAGCTGGGAGCGTGCTAG` the log fluorescence was -0.225 z-score.
`AGGCATGTGGGTTCCATCATGTGCTAG` gave a log fluorescence of -0.473 z-score.
`GACGGACTGGACTCTCGGGACGTGCTA` gave a log fluorescence of -0.543 z-score.
For `TCATGTCTGTAGCTCATACTGTGCTAG`, the log fluorescence was -0.168 z-score.

Series 3
Target: RNA binding protein fox-1 homolog 2, RRM domain, GST-SBP tag (RBFOX2, Homo sapiens, UniProt O43251-10, residues 100-194)
Technique: RNA Bind-n-Seq
Molecule type: RNA
Matrix: in vitro
Concentration: 365 nM
Notes: natural RNA segment, single round, ends assumed
Baseline: no-protein control
Direction: higher = stronger binding
Residues (chain): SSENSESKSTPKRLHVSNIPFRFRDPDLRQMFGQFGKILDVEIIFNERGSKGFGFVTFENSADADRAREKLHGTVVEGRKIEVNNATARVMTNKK
Under “RBNS enrichment (R)”, `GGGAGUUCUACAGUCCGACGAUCGCCUCAAUGUGAAUCAGACCCUACCCCACCACGAUGUGGCCCUGGCCUGCUGGGCUCUCCACCUCAGCCUUGGAUAAUGCUGUUGCCUCAUCUAUAACAUGCAUUUGUCUUGGAAUUCUCGGGUGCCAA` is recorded as 0.461.
For `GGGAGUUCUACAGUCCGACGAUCACACCAGAUCAUUUUUAUACAGGAUGUAGAGUACUGAUGCGGUUGAUCUUUUCCUUCAAGAACAUUCUUUUCUAUAGAAAAAUGAUUCCCUGUGAUCUUCUGGAAGCUCCUGGAAUUCUCGGGUGCCAA`, “RBNS enrichment (R)” read 0.505.
For `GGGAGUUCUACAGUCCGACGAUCCUAGAUUACGCUACCUGUGUUUGAAAAUAUUGCGCUUUGCCUAACCUUCGGUGGAAUGUAUUGUUUCAGCAUAUUCUAUGUAUAAAAAAGUUUAAAGAUGUCUUCAAAGAUGGAAUUCUCGGGUGCCAA`, “RBNS enrichment (R)” read 0.357.
Under “RBNS enrichment (R)”, `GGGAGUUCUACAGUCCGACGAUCUCUUCUCAACCCUUCAAACUUCUGGUGACACUUAAGAUGUAGCUGAUUCCCCUCAUCCGAACUGCUGUGUCCAACCUCCAUUGAAGAGCCUUUUCUCCCUCCCUCUCCCUUGGAAUUCUCGGGUGCCAA` is recorded as 0.926.
For `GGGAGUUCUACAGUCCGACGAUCCCAUCUCAGUGUCAGACCAGCCUUCUCCUCAGCUGACCACCCUCCUCUGACCCACGCCCCCUCCUUGUCUGAAAGAAAGGAGCCUUGAAUGGUGGAGGGAGGCAGUGGGGUGGAAUUCUCGGGUGCCAA`, “RBNS enrichment (R)” read 0.466.
For `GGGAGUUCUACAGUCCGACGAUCUUAUAGAUCCUAAGUUAUUUACGUAACUCAAACUGAAUGGCUCUCUGAGAUGGAUGACUGGCGUGAACAUGUCUCUGAAGUUGUACUUGAGAAGACAAGAAGAAUAAUGUUGGAAUUCUCGGGUGCCAA`, “RBNS enrichment (R)” read 0.371.
`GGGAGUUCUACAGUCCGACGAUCAUGUUAGGUAUUUAAAUUCUUAAAGAUGUUGGGUUGUUUAUUAGUGGUAUUUUUAUGUUGUCUUAUUUUAGGUAAGCUUCUGUGUAAAGCUAAAAAUCCUGUGAAUACAAUGGAAUUCUCGGGUGCCAA` — result for “RBNS enrichment (R)”: 0.551.
Under “RBNS enrichment (R)”, `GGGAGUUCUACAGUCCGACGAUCGAAAAAAAUAUAUAUAUUUUUGGAAAUGUAGCAUUUUAUACUUUCAAGUGUUAUAAAAAAAAAGAAAAAGAACAAAGAAACCCUUUAUUUCAUUAAAUGAUUUUUUCUGGUGGAAUUCUCGGGUGCCAA` is recorded as 1.03.

Series 4
Target: RING finger protein unkempt homolog, zinc fingers 1-6, SBP tag (UNK, Homo sapiens, UniProt Q9C0B0, residues 30-357)
UniProt Q9C0B0, sequence (30-357, looked up): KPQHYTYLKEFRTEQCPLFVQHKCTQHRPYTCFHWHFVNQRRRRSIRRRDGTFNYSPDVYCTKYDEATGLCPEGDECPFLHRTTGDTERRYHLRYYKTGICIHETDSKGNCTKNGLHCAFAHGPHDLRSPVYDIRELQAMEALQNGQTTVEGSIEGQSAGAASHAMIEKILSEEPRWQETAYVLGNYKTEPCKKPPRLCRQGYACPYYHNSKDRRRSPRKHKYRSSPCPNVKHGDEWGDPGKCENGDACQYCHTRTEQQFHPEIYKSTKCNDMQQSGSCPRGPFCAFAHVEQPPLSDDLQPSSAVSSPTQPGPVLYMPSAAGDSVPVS
Technique: RNA Bind-n-Seq
Molecule type: RNA
Matrix: in vitro
Concentration: 100 nM
Notes: RNA with constant flanks, vertebrate orthologous sites, ends assumed
Baseline: input RNA pool
Direction: higher = stronger binding
With `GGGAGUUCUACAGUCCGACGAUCUUGUUUUGUACAGGGCAUUCUCUGUACAAAUUUGUUGUGGUUAUAAAACAAUUAGCAAAACAGCUUACAUUUGUAUUUAUUUUCUAUUCCAUACCUCUUCCCCAUGUAUUUUCUCCUCAACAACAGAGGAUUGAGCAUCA` the bound/input enrichment was 0.655 ratio.
`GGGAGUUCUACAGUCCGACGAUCUUGGUUGAAGGUAGAGGGGAGGGAGGGGCAGGACAGUGUGGAAUCUGUAGGGUGUUAUGGGUAGGUAGAGGGAAGAGUUCUAAGUGGGCCUUUAUGUUAAAAACCUAGAGGUGUCUAUUCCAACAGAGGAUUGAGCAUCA` has a bound/input enrichment of 0.536 ratio.
The bound/input enrichment of `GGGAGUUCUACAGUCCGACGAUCCACAUCUGGUGAUAUUUGGCCUGGCCUUUCAGCUUACGAUAAUAGUCCCAGAUCACCUCAUAGUCCUUCACCGAUUGCUACACCACCUAGUCAGAGUUCAUCUUGCUCUGAUGCCCCCAUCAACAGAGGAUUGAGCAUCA` is reported as 0.818 ratio.
`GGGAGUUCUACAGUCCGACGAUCACAGAGGCACUUUCUCCUUUGGUCUUUCAUUGUAAGAAGAAAUGGACCCAUGCACAUUUAUAUAGCUUUCUAAUAGCAUUAAAACCAAUGCCUUUCUAGACUCCUAUUUUUGAUGUAUAUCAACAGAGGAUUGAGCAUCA` has a bound/input enrichment of 0.492 ratio.
`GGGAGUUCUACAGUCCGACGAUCAAGAACAGGAGCAGCAUAAACUGAGCUUUGGGGAAAUAAGCUUUGCUUUUUAUAUUUAAAUAGGAUACUUUUAUAUGAUGGGUGCUUUGAGUGUGAAUGCAGCAGGCUCUCCAUUUCGGACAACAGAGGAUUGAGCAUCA` has a bound/input enrichment of 1.55 ratio.
With `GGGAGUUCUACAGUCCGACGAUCAGUAAGAGUUGAAAGAAUUGUACGAGGUAGUGGUGAAAAAGUAGGAGCAGUUUGGAAGAGUAGUUACAAAUAUCAAGAGCCAGUUGGCUCAGAAGUGGAGGUGCAGAUCAUUGAAUCUCACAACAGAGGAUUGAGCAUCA` the bound/input enrichment was 0.725 ratio.
With `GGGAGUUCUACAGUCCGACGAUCUGACCAUACAUAGACAAUGUGUAUCAAAUGCUGGUUGUAAAAUUAAAUCAUCAUCUAGAAUAGAGUUAAUUUGUUAUAAUCAAGCUACACAUAGGUUUUCUUAAACCAGAGGUGAUGCACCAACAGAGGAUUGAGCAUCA` the bound/input enrichment was 0.505 ratio.
For `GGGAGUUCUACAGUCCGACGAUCCAUAAAAUAUUGGAUGCAGUGUAUAAAUUAUCCAAGGCAGUGACUUCAGCUUUAUAUAUAUUGUUGGUUUUUAAGUCAUCUAUAUUUAUUUAAACUUCUAUAUUGGAUUGUUUGCUCAGUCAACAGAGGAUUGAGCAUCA`, the bound/input enrichment was 0.275 ratio.

Some of these lines once more (series 1):
The E-score of `CGCTCGTA` is reported as -0.0777.
For `AGATAGGC`, the E-score was -0.0463.
`GGAGCGAC` has an E-score of -0.145.
The E-score of `CCGAAAAG` is reported as -0.0012.
`AGCAATAT` has an E-score of 0.374.
With `ACGAACGT` the E-score was 0.0119.
With `GCGGCTCA` the E-score was -0.242.
With `ATGCGAAT` the E-score was 0.223.
With `ACGATGAT` the E-score was 0.0361.
